Measured values gathered from unrelated publications.
Each line is one published result; not all experiments were run side by side. Several values in a cell are separate wells, animals, samples, runs or records.
INSR: Insulin receptor (INSR, Homo sapiens, UniProt P06213)

| Structure (SMILES) | target | assay | setting | how to read | endpoint | value |
| --- | --- | --- | --- | --- | --- | --- |
| C=CC(=O)Nc1cccc(-c2cnc3[nH]cc(C(=O)NC(C)(C)C)c3n2)c1 | INSR | kinase activity | 0.1 µM |  | inhibition | 2% and 4% |
| C=CC(=O)N1Cc2nc(-c3cc(-c4cc(Cl)cnc4Cl)c(F)cc3F)n(-c3ccncn3)c2C1 | INSR | cell-free assay | 1 µM |  | inhibition | 6.1% |
| CN1CCN(c2ccc(Nc3ncc(Cl)c(Nc4ccccc4P(C)(C)=O)n3)cc2Br)CC1 | INSR | enzyme activity, inhibitor | 0.1 µM |  | inhibition | 87.9% |
| O=C(Cc1ccc(OCc2ccccc2)cc1)NC1(C(=O)O)CCN(C(=O)c2ccc(-c3cccc(Cl)c3)cc2)CC1 | Insulin receptor, phosphorylated (INSR, Homo sapiens, UniProt P06213) | enzyme activity, inhibitor | 10 µM |  | activity vs control | 102% |
| CN1CCN(Cc2ccc(NC(=O)c3cccc(C#Cc4cnc(N)c5ncccc45)c3)cc2C(F)(F)F)CC1 | INSR | cell-free assay, competition with immobilised ligand | 50 nM |  | remaining binding | 77% |
| C[C@H]1CN(C(=O)c2cn(-c3ccnc(N)n3)c3cc(C#CC4(O)CCCCC4)ccc23)CCN1 | INSR | enzyme activity, inhibitor, FRET | 1 µM |  | inhibition | -2% |
| Cc1cnc2nc1Nc1cccc(c1)COC/C=C/COCc1cc(ccc1OCCN1CCOCC1)N2 | INSR | binding | 0.1 µM |  | remaining binding | 58% |
| O=C=[N][Ru-4]123([n]4c5ccc(O)cc5c5c6c(c7cc(F)c[n+]1c7c54)C(=O)NC6=O)[S+]1CC[S+]2CC[S+]3CC1 (centres unmarked) | INSR | enzyme activity | 100 nM, human enzyme, together with: 10 µM ATP | baseline: untreated | remaining activity | 104% |
| NC(=O)[C@@H](O)C[C@H]1CCc2sc3ncnc(O[C@H]4CC[C@H](N5CCOCC5)CC4)c3c21 | INSR | enzyme activity, inhibitor | 10 µM |  | inhibition | 10% |
| C=CC(=O)N1CCCC(n2c(=O)c3ncccc3n(Cc3ccc(Oc4ccccc4)cc3)c2=O)C1 (centres unmarked) | INSR | cell-free assay, competition with immobilised ligand | 1 µM |  | remaining binding | 100% |
| C=CC(=O)N1CCc2ccc(-n3c(=O)ccc4cnc5ccc(-c6cnn(C)c6)cc5c43)cc21 | INSR | KINOMEscan | 1 µM | baseline: DMSO control | remaining binding | 75% |
| C=C1C[C@]2(C(=O)OC)C=C(C(=O)Nc3cccc(C(=O)Nc4ccc(Nc5nccc(-c6cccnc6)n5)c(C)c4)c3)C(=O)[C@H]1C2 | INSR | binding, competition with immobilised ligand | 1 µM |  | remaining binding | 82% |
| CC(=O)N1c2ccc(-c3ccc(CNC(=O)c4cn5cc(-c6cnc(N)nc6)nc(N6CCOCC6)c5n4)cc3)cc2CC[C@@H]1C | INSR | KINOMEscan | 10 µM |  | remaining binding | 87% |
| Cc1cccc(O[C@H]2CCC[C@@H](C(C)CNCc3ccncc3)C2)c1 (relative stereo) | INSR | cell-free assay | 10 µM |  | inhibition | -3% |
| COc1ccc(NC(=O)Nc2ccc3c(c2)C(=O)N(C(C)CO)CC(C)C(CN(C)Cc2ccc4c(c2)OCO4)O3)cc1 (centres unmarked) | Insulin receptor, activated (INSR, Homo sapiens, UniProt P06213) | kinase activity | 0.03 µM | baseline: control | remaining activity | 96% |
| Cc1cccc(-c2ccc3nc(NC(=O)C4CCCO4)nn3c2)c1 (centres unmarked) | INSR | enzyme activity, Dundee kinase panel | 10 µM |  | remaining activity | 80% |
| CCn1cc(C(=O)O)c(=O)c2c(N)c(F)c(NC3CCCCC3)cc21 | INSR | kinase activity | 0.1 µM, together with: ATP at Km |  | inhibition | 6.6% |

For quick reference, copied from above:
| Structure (SMILES) | target | assay | setting | how to read | endpoint | value |
| --- | --- | --- | --- | --- | --- | --- |
| C=CC(=O)Nc1cccc(-c2cnc3[nH]cc(C(=O)NC(C)(C)C)c3n2)c1 | INSR | kinase activity | 0.1 µM |  | inhibition | 2% and 4% |
| C[C@H]1CN(C(=O)c2cn(-c3ccnc(N)n3)c3cc(C#CC4(O)CCCCC4)ccc23)CCN1 | INSR | enzyme activity, inhibitor, FRET | 1 µM |  | inhibition | -2% |
| CC(=O)N1c2ccc(-c3ccc(CNC(=O)c4cn5cc(-c6cnc(N)nc6)nc(N6CCOCC6)c5n4)cc3)cc2CC[C@@H]1C | INSR | KINOMEscan | 10 µM |  | remaining binding | 87% |
